Experimental data pooled from the literature.
± gives the spread as reported.
Cell line: HepG2

CCOC(=O)/C=C1\S/C(=N\N=C\c2cccc3cc4ccccc4nc23)N(c2ccc(OC)cc2)C1=O — IC50 (cell growth or viability, MTT; 48 h): > 50 µM
COCCN(C)CC(=O)NC(Cc1ccc(-c2ccccc2)cc1)B(O)O (stereo not shown) — IC50 (cell growth; 72 h): 1.35 µM
COc1ccc(C(C)N(C)c2nc(N)nc3nc[nH]c23)cc1 (stereo not shown) — IC50 (cytotoxicity, MTT): > 50 µM
CCCCCCC(=O)[O][Pt]([NH2])([NH2])([Cl])([Cl])[O]C(=O)CCC(C)C1CCC2C3CCC4CC(O)CCC4(C)C3CCC12C (stereo not shown) — IC50 (cell viability, MTT; 72 h): 0.95 ± 0.05 µM
O=C(Nc1ccc(F)cc1)NC1CCN(c2ncnc3nc[nH]c23)C1 (stereo not shown) — IC50 (cytotoxicity, MTT): > 50 µM
Cc1ccc(-c2ccc(C)cn2)nc1.[Co+2].[O-]c1c(I)cc(Cl)c2cccnc12.[O-]c1c(I)cc(Cl)c2cccnc12 — IC50 (cell growth or viability, MTT; 48 h): 23.6 µM
Oc1ccc(C#Cc2cccc3c2C(c2ccc(O)cc2)(c2ccc(O)cc2)c2cc(O)ccc2-3)cc1 — IC50 (cell growth or viability, MTT; 48 h): 12.5 µM
O=C1C=C(O)C(=O)c2ccccc21 — IC50 (cell growth or viability, MTT): 248 µM
CCCN1C(=O)/C(=C/C(=O)OCC)S/C1=N\N=C\c1cccc2cc3ccccc3nc12 — IC50 (cell growth or viability, MTT; 48 h): > 50 µM
NC(=O)c1ccc(-c2ccccc2Cl)c2c3c([nH]c12)CC[C@@H](N)C3 — IC50 (cell growth or viability): 0.0191 µM
Cc1ccc2c(Cl)cc(Cl)c([O-])c2n1.Cc1ccc2c(Cl)cc(Cl)c([O-])c2n1.[Co+2].c1ccc(-c2ccnc3c2ccc2c(-c4ccccc4)ccnc23)cc1 — IC50 (cell growth or viability, MTT; 48 h): 6.21 µM
Nc1nc(=O)n(C2CC(O)C(CO)O2)cc1F (stereo not shown) — IC50 (cell growth or viability): > 10 µM
CCOC(=O)/C=C1\S/C(=N\N=C\c2cccc3cc4ccccc4nc23)N(CC(C)C)C1=O — IC50 (cell growth or viability, MTT; 48 h): > 50 µM
CCCCCCCCCCCCCCCCCC(=O)[O][Pt-2]1([OH])([Cl])([NH+]=C(CC)N(C)CCNc2c3ccccc3[nH+]c3ccccc23)[NH]CCC[NH]1.O=[N+]([O-])O.O=[N+]([O-])O — IC50 (cell growth or viability, MTS; 72 h): 0.207 µM
Cc1ccc(C(C)C)cc1.Cc1ccc(C(C)C)cc1.Cc1ccc(C(C)C)cc1.Cc1ccc(C(C)C)cc1.O=S(=O)(O)C(F)(F)F.O=S(=O)(O)C(F)(F)F.O=S(=O)(O)C(F)(F)F.O=S(=O)(O)C(F)(F)F.c1ccc2c3c4ccccc4c(c2c1)-c1cn(nn1)-c1cc[n+](cc1)[Ru-]1[O]c2c4ccccc4c4c5c(c6ccccc6c(c25)=[O+]1)=[O+][Ru-]([O]4)[n+]1ccc(cc1)-n1cc(nn1)-c1c2ccccc2c(c2ccccc12)-c1cn(nn1)-c1cc[n+](cc1)[Ru-]1[O]c2c4ccccc4c4c5c(c6ccccc6c(c25)=[O+]1)=[O+][Ru-]([O]4)[n+]1ccc(cc1)-n1cc-3nn1 — IC50 (cell growth or viability, MTT; 24 h): 4.5 µM
COc1ccnc(-c2cc(OC)ccn2)c1.Cc1ccc2c(Cl)cc(Cl)c([O-])c2n1.Cc1ccc2c(Cl)cc(Cl)c([O-])c2n1.[Co+2] — IC50 (cell growth or viability, MTT; 48 h): 7.09 µM
COc1cccc(N2C(=O)CS/C2=N\N=C\c2cccc3cc4ccccc4nc23)c1 — IC50 (cell growth or viability, MTT; 48 h): 43.4 µM
COc1ccc2c(c1)/C(=N/NC(N)=S)C(=O)N2CCn1cnc2c(N)ncnc21 — IC50 (cell growth or viability, SRB; 72 h): 12.2 µg/mL
O=Cc1ccc2c(c1C#Cc1ccc(O)cc1)C(c1ccc(O)cc1)(c1ccc(O)cc1)c1cc(O)ccc1-2 — IC50 (cell growth or viability, MTT; 48 h): > 50 µM
O=C1CS/C(=N\N=C2/C(=O)N(CCn3ncc4c(=O)[nH]cnc43)c3ccc(Cl)cc32)N1 — IC50 (cell growth or viability, SRB; 72 h): 2.43 µg/mL
CCOc1cncc(-c2ccc(NC(=O)C3(c4ccnc(NS(=O)(=O)C5CC5)n4)CCOCC3)nc2)n1 — IC50 (cell growth, CellTiter-Glo; 72 h): 10 µM
O=C1CS/C(=N\N=C\c2cccc3cc4ccccc4nc23)N1c1ccccc1 — IC50 (cell growth or viability, MTT; 48 h): > 50 µM
NC1=C(Cl)C(=O)c2cccc([N+](=O)[O-])c2C1=O — IC50 (cell growth or viability, MTT): 11.2 µM
O=C1CS/C(=N\N=C\c2cccc3cc4ccccc4nc23)N1c1ccc(F)cc1 — IC50 (cell growth or viability, MTT; 48 h): 43.8 µM
NC(=O)c1nccn([C@@H]2O[C@H](CO)[C@@H](O)[C@H]2O)c1=O — IC50 (cell growth or viability): > 10 µM
Cc1ccc2c(Br)cc(Br)c([O-])c2n1.Cc1ccc2c(Br)cc(Br)c([O-])c2n1.[Co+2].c1ccc(-c2ccccn2)nc1 — IC50 (cell growth or viability, MTT; 48 h): 16 µM
CCC(=[N][Pt-2]1([Cl])[NH2+]CCC[NH2+]1)N(C)CCNc1c2ccccc2nc2ccccc12.O=[N+]([O-])O.O=[N+]([O-])O — IC50 (cell growth or viability, MTS; 72 h): 0.00542 µM
c1ccc2c(-c3cn(-c4ccncc4)nn3)c3ccccc3c(-c3cn(-c4ccncc4)nn3)c2c1 — IC50 (cell growth or viability, MTT; 24 h): > 20 µM
O=S(=O)(c1ccc2c(c1)OCO2)n1cc(CCCCN2CCC(=C(c3ccc(F)c(F)c3)c3ccc(F)c(F)c3)CC2)nn1 — IC50 (cell growth or viability, ATP luminescence; 48 h): 2.65 µM
COC(OC)c1ccc(-c2ccc(O)cc2)c(C(=C2C=CC(=O)C=C2)c2ccc(O)cc2)c1C#Cc1ccc(O)cc1 — IC50 (cell growth or viability, MTT; 48 h): > 50 µM
CC(C)CN1C(=O)CS/C1=N\N=C\c1cccc2cc3ccccc3nc12 — IC50 (cell growth or viability, MTT; 48 h): > 50 µM
O=c1[nH]c(=O)n([C@H]2C[C@H](O)[C@@H](CO)O2)cc1F — IC50 (cell growth or viability): > 10 µM
Cc1ccc(-c2ccc(C)cn2)nc1 — IC50 (cell growth or viability, MTT; 48 h): > 50 µM
COc1ccc(O)c(C(=O)c2cnn(-c3oc(C)nc3C#N)c2)c1 — IC50 (cytotoxicity, MTT): > 50 µM
CC(=O)[O][Pt]([NH2])([NH2])([Cl])([Cl])[O]C(=O)CCC(C)C1CCC2C3CCC4CC(O)CCC4(C)C3CCC12C (stereo not shown) — IC50 (cell viability, MTT; 72 h): 2.5 ± 0.2 µM
Cc1ccc(C(C)C)cc1.Cc1ccc(C(C)C)cc1.Cc1ccc(C(C)C)cc1.Cc1ccc(C(C)C)cc1.O=S(=O)(O)C(F)(F)F.O=S(=O)(O)C(F)(F)F.O=S(=O)(O)C(F)(F)F.O=S(=O)(O)C(F)(F)F.c1ccc2c3c4ccccc4c(c2c1)-c1cn(nn1)-c1cc[n+](cc1)[Ru-]1[O]C2=[O+][Ru-]([O]C2=[O+]1)[n+]1ccc(cc1)-n1cc(nn1)-c1c2ccccc2c(c2ccccc12)-c1cn(nn1)-c1cc[n+](cc1)[Ru-]1[O]C2=[O+][Ru-]([O]C2=[O+]1)[n+]1ccc(cc1)-n1cc-3nn1 — IC50 (cell growth or viability, MTT; 24 h): 14.3 µM
Clc1ccnc2c1ccc1c(Cl)ccnc12.[Co+2].[O-]c1c(I)cc(I)c2cccnc12.[O-]c1c(I)cc(I)c2cccnc12 — IC50 (cell growth or viability, MTT; 48 h): 38.1 µM
O=C1O[C@H]([C@@H](O)CO)C(O)=C1O[C@H]1O[C@H](CO)[C@@H](O)[C@H](O)[C@H]1O — IC50 (cell growth or viability): > 10 µM
Cc1ccnc(-c2cc(C)ccn2)c1 — IC50 (cell growth or viability, MTT; 48 h): > 50 µM
NCC1OC(OC2C(N)CC(N)C(OC3OC(CO)C(O)C(N)C3O)C2O)C(N)C(O)C1O (stereo not shown) — IC50 (cell growth or viability): > 10 µM
CCC(=[NH+][Pt-2]1([OH])([OH])([Cl])[NH]CCC[NH]1)N(C)CCNc1c2ccccc2[nH+]c2ccccc12.O=[N+]([O-])O.O=[N+]([O-])O — IC50 (cell growth or viability, MTS; 72 h): 0.0272 µM
CCOC(=O)/C=C1\S/C(=N\N=C\c2cccc3cc4ccccc4nc23)N(c2ccc([N+](=O)[O-])cc2)C1=O — IC50 (cell growth or viability, MTT; 48 h): > 50 µM
C[C@H]1c2cccc(O)c2C(O)=C2C(=O)[C@]3(O)C(O)=C(C(N)=O)C(=O)[C@@H](N(C)C)[C@@H]3[C@@H](O)[C@@H]21 — IC50 (cell growth or viability): > 10 µM

Excerpt of the above:
CCC(=[N][Pt-2]1([Cl])[NH2+]CCC[NH2+]1)N(C)CCNc1c2ccccc2nc2ccccc12.O=[N+]([O-])O.O=[N+]([O-])O — IC50 (cell growth or viability, MTS; 72 h): 0.00542 µM
c1ccc2c(-c3cn(-c4ccncc4)nn3)c3ccccc3c(-c3cn(-c4ccncc4)nn3)c2c1 — IC50 (cell growth or viability, MTT; 24 h): > 20 µM
O=S(=O)(c1ccc2c(c1)OCO2)n1cc(CCCCN2CCC(=C(c3ccc(F)c(F)c3)c3ccc(F)c(F)c3)CC2)nn1 — IC50 (cell growth or viability, ATP luminescence; 48 h): 2.65 µM
